Published values pooled from the literature.
Protocols differ between the studies behind these lines. Numbers after ± are the reported error.

`CN1CC[C@@H](c2c(O)cc(O)c3c(=O)cc(-c4ccc(C(F)(F)F)cc4Cl)oc23)[C@@H]1CO` — result for “patients with adverse event”: 25% (item: Dyspnea; AML; oral, 150 mg, intermittent dosing).
`O=C(O)CCC(CP(=O)(O)O)C(=O)O` (stereo not drawn) — result for stability: “stable” (rat plasma; -80 °C, repeated freeze-thaw cycles).
For `CC(C)n1c(C2CCNCC2)nc2c([N+](=O)[O-])c(Br)c(Br)cc21`, “adverse events causing interruption” read 2% (item: Nausea; AML patients; 125 mg).
Under “participants with adverse event”, `COc1ccc(C[C@@H]2NC(=O)[C@H]([C@@H](C)O)NC(=O)[C@@H]3[C@@H]4CCN3C(=O)[C@@H]3Cc5cn(c6ccc(F)cc56)CCCCCCN(Cc5ccc(cc5)CCNC(=O)[C@]5(C)CCCN5C2=O)C(=O)CCC(=O)N[C@@H](C)C(=O)N[C@H](CNC(=O)CCCCC[N+](C)(C)C)C(=O)N[C@@H](Cc2cccc(c2)CNC(=O)CO4)C(=O)N3)cc1` is recorded as 7.8% (item: Diarrhea; humans; concentration not given, Study-001).
`CC(=O)c1c(C)c2cnc(Nc3ccc(C4CCN(CCS(C)(=O)=O)CC4)cn3)nc2n(C2CCCC2)c1=O` — result for “blood creatinine increased”: 21.1 % patients (HR+/HER2- advanced breast cancer patients; oral, dose not given, all grades).
`CC[C@H](C)[C@@H]1NC(=O)[C@@H]2CCCN2C(=O)[C@H](CC(C)C)NC(=O)[C@H](CC(C)C)NC(=O)CNC(=O)[C@@H](NC(=O)[C@@H](NC(=O)[C@H](CC(=O)O)NC(=O)CNC(=O)[C@@H](NC(=O)[C@H](C)NC(=O)CNC(=O)[C@H](CCCCN)NC(=O)[C@H](CC(C)C)NC(=O)[C@H](CC(C)C)NC(=O)[C@H](CCCCN)NC(=O)CNC(=O)[C@@H](NC(=O)[C@@H](N)CC(C)C)C(C)C)C(C)C)C(C)C)CSSC[C@@H](C(=O)O)NC1=O` gave a clearance of 3.15 ± 0.42 mL/min (female C57BL/6 mice, plasma; intravenous, 10 mg/kg).
`CCN1[C@@H](C(=O)NC23CCC(C(=O)O)(CC2)CC3)[C@H](c2cccc(Cl)c2F)[C@]2(C(=O)Nc3cc(Cl)ccc32)C12CCCCC2` gave a nausea/vomiting incidence of 62.5% (patients with advanced solid tumours; oral, 150 mg).
For `COC[C@@H](CC(C)C)NC(=O)c1ccc(C)c(C)c1`, “PCE to total erythrocyte ratio” read 0.522 (Hsd:ICR (CD-1) mouse, female, bone marrow; oral, 500 mg/kg, 24 h).
`Cn1ncc(-c2nc(N[C@H]3CC[C@H](N)CC3)ncc2Cl)c1CC1CC1` has an AUC of 2140 ng·h/mL (HPLC-MS/MS; patients, plasma; oral, 21 mg, day 1).
For `O=c1ccc2cc3ccoc3cc2o1`, the accuracy was 94.2% (three freeze-thaw cycles; rat plasma; 1000 ng/mL, -70 °C freeze).
`C[C@H]1CN(C(=O)CC#N)[C@]12CCN(c1ncnc3[nH]ccc13)C2` gave an NOAEL of 30 mg/kg (rat male and female; oral, 3 months, repeated-dose toxicity study).
`COc1cc2c(Oc3ccc4[nH]c(C)cc4c3F)ccnc2cc1OCC1(N)CC1`: “Triglyceride elevation incidence” 0% (paediatric refractory sarcoma patients; 8 mg).
`CC[C@H](C)CCCCC(=O)N[C@@H](CCN)C(=O)N[C@H](C(=O)N[C@@H](CCN)C(=O)N[C@H]1CCNC(=O)[C@H]([C@@H](C)O)NC(=O)[C@H](CCN)NC(=O)[C@H](CCN)NC(=O)[C@H](CC(C)C)NC(=O)[C@@H](Cc2ccccc2)NC(=O)[C@H](CCN)NC1=O)[C@@H](C)O`: “Cmin at steady state” 1400 ng/mL (critically ill patients, plasma; dose not given, median, before fifth dose).
`CC(C)CC(=O)OC[C@H]1O[C@@](C#N)(c2ccc3c(N)ncnn23)[C@H](O)[C@@H]1O` gave a recovery of 103% (plasma protein binding; monkey plasma; 9 µM, time not given).
For `O=S(=O)(Nc1ccccc1)c1ccc(NC(=S)Nc2ccccc2)cc1`, “relative organ weight” read 2.26% (mouse, male, small intestine; oral, 20 mg/kg daily, 14 days; baseline: body weight).
`C[C@]1(CO)Cc2ncn(-c3ccc(C#N)c(Cl)c3)c2C(=O)O1` has an AUC(0-inf) of 8.21 µM·h (human, plasma; 40 mg single dose, geometric mean).
`N#Cc1cc(NC(=O)[C@H]2c3ccccc3C(=O)N(CC(F)(F)F)[C@@H]2c2cccnc2)ccc1F`: “well tolerated single dose” ≤ 750 mg/kg (Sprague Dawley rat, both sexes; oral).
For `C[C@@H]1NC(=O)[C@H](CCCCNC(=O)CO/N=C/C(=O)NCCCC[C@@H]2NC(=O)[C@@H](Cc3ccccc3)NC(=O)[C@H](CC(=O)O)NC(=O)CNC(=O)[C@H](CCCNC(=N)N)NC2=O)NC(=O)CNC(=O)[C@@H]2CCCN2C(=O)[C@H](CCCCNC(=O)CO/N=C/C(=O)NCCCC[C@@H]2NC(=O)[C@@H](Cc3ccccc3)NC(=O)[C@H](CC(=O)O)NC(=O)CNC(=O)[C@H](CCCNC(=N)N)NC2=O)NC(=O)[C@H](CCCCNC(=O)CN2CCCNCCNCCCNCC2)NC(=O)[C@H](CCCCNC(=O)CO/N=C/C(=O)NCCCC[C@@H]2NC(=O)[C@@H](Cc3ccccc3)NC(=O)[C@H](CC(=O)O)NC(=O)CNC(=O)[C@H](CCCNC(=N)N)NC2=O)NC(=O)CNC(=O)[C@@H]2CCCN2C(=O)[C@H](CCCCNC(=O)CO/N=C/C(=O)NCCCC[C@@H]2NC(=O)[C@@H](Cc3ccccc3)NC(=O)[C@H](CC(=O)O)NC(=O)CNC(=O)[C@H](CCCNC(=N)N)NC2=O)NC1=O` [copper-64 labelled], the tissue uptake was 6.69 ± 0.41 %ID/g (biodistribution after PET; mouse, U-87 MG tumour xenograft, liver; intravenous, 24 h).
For `Cn1cncc1-c1c(F)cncc1NC(=O)c1c(N)nn2cc(F)cnc12`, “patients grade ≥3 Anemia” read 67% (human patients; oral, 220 mg once daily, 2 weeks on 1 week off).
`C[C@@H]1OC(=O)NN=C1c1ccc(-c2ccc(F)cc2)c(C(F)(F)F)c1` — result for “patients with adverse event”: 20% (phase I trial, item: Diarrhoea worst grade 1; human patients; dose not given, all dose groups).
For `CC(C)C[C@H](NC(=O)[C@H](CCCCN)NC(=O)OCC1c2ccccc2-c2ccccc21)C(=O)N[C@H](C(=O)N[C@@H](Cc1ccccc1)C(=O)N[C@@H](Cc1ccccc1)C(=O)N[C@@H](CCCCN)C(=O)NCC(=O)N[C@@H](Cc1ccccc1)C(=O)N[C@@H](C)C(=O)N[C@@H](Cc1c[nH]c2ccccc12)C(=O)N[C@@H](CC(N)=O)C(=O)N[C@H](C(=O)N[C@H]1CSSC[C@@H](C(=O)N[C@@H](Cc2c[nH]cn2)C(=O)N[C@@H](CCCNC(=N)N)C(=O)N[C@@H](CCCNC(=N)N)C(=O)N[C@@H](C)C(=O)N[C@@H](CC(N)=O)C(N)=O)NC(=O)[C@H](C(C)C)NC(=O)[C@H](CCCNC(=N)N)NC(=O)[C@H](C(C)C)NC(=O)CNC(=O)[C@H](CC(N)=O)NC(=O)[C@H](CCCNC(=N)N)NC(=O)[C@H](Cc2ccc(O)cc2)NC(=O)[C@H](C(C)C)NC1=O)C(C)C)C(C)C`, the ALT was 48.3 ± 1.69 IU/L (ICR mouse, blood; intramammary, 10 mg/kg, day 5, 3 d dosing).
`CO[C@H]1C[C@@H]2CC[C@@H](C)[C@@](O)(O2)C(=O)C(=O)N2CCCC[C@H]2C(=O)O[C@H]([C@H](C)C[C@@H]2CC[C@@H](OC(=O)NCCOCCOCCOCCOCCOCCOCCOCCOCCC(=O)N3CCc4cc(Cn5nc(-c6ccc7oc(N)nc7c6)c6c(N)ncnc65)ccc4C3)[C@H](OC)C2)C[C@@H](O)[C@H](C)/C=C(\C)[C@@H](O)[C@@H](OC)C(=O)[C@H](C)C[C@H](C)/C=C/C=C/C=C/1C` — result for “AEs causing dose modification”: 25% (phase 1 dose escalation; advanced solid tumour patients; intravenous, 12 mg weekly, grade ≥3).
For `CC(C)(O)c1cc(Nc2cc(Oc3cn(C4CC4)nc3C3CCOCC3)ccn2)ccn1`, “AST increased, grade ≥3” read 0% (patients with advanced cancer, Japanese cohort; oral, dose not given, treatment-related adverse events).
`c1ccc2[nH]ccc2c1` gave a logD (chromatographic) of 4.14 (pH 7.4).
The autosampler stability of `O=c1nc(NO)ccn1[C@@H]1O[C@H](CO)[C@@H](O)[C@H]1O` is reported as 98.5 ± 16.8% (rat maternal blood dialysate; 1000 ng/mL, 6 h, 10 °C, high QC concentration, added: molnupiravir).
Under “patients with cough”, `O=C1Nc2cc3[nH]nc(-c4ccncc4)c3cc2CN1Cc1ccccc1` is recorded as 0% (CTCAE v4.03; advanced solid tumour patients; intravenous, 1.8 mg/kg, schedules 1/2).
The Tmax of `CCC[C@@](N)(CO)CCc1ccc(OCCCCCC(C)C)cc1` is reported as 6 h (male hound dog, plasma; oral, 20 mg/kg, capsule, fasted, median).
Under “treatment-related adverse events”, `CCCCCCCCCCCCCCCC(=O)N[C@@H](CCC(=O)NCCCC[C@H](NC(=O)[C@H](CC(=O)O)NC(=O)[C@H](CO)NC(=O)[C@@H](NC(=O)[C@H](Cc1ccccc1)NC(=O)[C@@H](NC(=O)CNC(=O)[C@H](CCC(N)=O)NC(=O)[C@H](CO)NC(=O)[C@@H](N)Cc1c[nH]cn1)[C@@H](C)O)[C@@H](C)O)C(=O)N[C@@H](CO)C(=O)N[C@@H](CCC(=O)O)C(=O)N[C@@H](Cc1ccc(O)cc1)C(=O)N[C@@H](CC(C)C)C(=O)N[C@@H](CC(=O)O)C(=O)N[C@@H](CO)C(=O)N[C@@H](CCC(=O)O)C(=O)N[C@@H](CCCNC(=N)N)C(=O)N[C@@H](C)C(=O)N[C@@H](CCCNC(=N)N)C(=O)N[C@@H](CC(=O)O)C(=O)N[C@@H](Cc1ccccc1)C(=O)N[C@H](C(=O)N[C@@H](C)C(=O)N[C@@H](Cc1c[nH]c2ccccc12)C(=O)N[C@@H](CC(C)C)C(=O)N[C@@H](CCC(=O)O)C(=O)N[C@@H](C)C(=O)NCC(=O)NCC(=O)O)C(C)C)C(=O)O` is recorded as 37.5% (item: Vomiting; humans CrCl at least 90 mL/min; subcutaneous, 100 µg single dose).
`CC(C)[C@H](N)C(=O)NCCCS(=O)(=O)O` gave a terminal half-life of 1.2 h (human, plasma; oral, 265 mg twice daily, week 65, steady state, 8 h sampling).
Under “any adverse drug reaction, any grade”, `C=CC(=O)N1CC[C@H](n2nc(C#Cc3cc(OC)cc(OC)c3)c3c(N)ncnc32)C1` is recorded as 100% (human patients; oral, dose not given, QD regimen, adverse drug reaction, added: any phosphate binder).

Repeated from above:
`N#Cc1cc(NC(=O)[C@H]2c3ccccc3C(=O)N(CC(F)(F)F)[C@@H]2c2cccnc2)ccc1F`: “well tolerated single dose” ≤ 750 mg/kg (Sprague Dawley rat, both sexes; oral).
For `O=S(=O)(Nc1ccccc1)c1ccc(NC(=S)Nc2ccccc2)cc1`, “relative organ weight” read 2.26% (mouse, male, small intestine; oral, 20 mg/kg daily, 14 days; baseline: body weight).
Under “any adverse drug reaction, any grade”, `C=CC(=O)N1CC[C@H](n2nc(C#Cc3cc(OC)cc(OC)c3)c3c(N)ncnc32)C1` is recorded as 100% (human patients; oral, dose not given, QD regimen, adverse drug reaction, added: any phosphate binder).
For `COC[C@@H](CC(C)C)NC(=O)c1ccc(C)c(C)c1`, “PCE to total erythrocyte ratio” read 0.522 (Hsd:ICR (CD-1) mouse, female, bone marrow; oral, 500 mg/kg, 24 h).
Under “treatment-related adverse events”, `CCCCCCCCCCCCCCCC(=O)N[C@@H](CCC(=O)NCCCC[C@H](NC(=O)[C@H](CC(=O)O)NC(=O)[C@H](CO)NC(=O)[C@@H](NC(=O)[C@H](Cc1ccccc1)NC(=O)[C@@H](NC(=O)CNC(=O)[C@H](CCC(N)=O)NC(=O)[C@H](CO)NC(=O)[C@@H](N)Cc1c[nH]cn1)[C@@H](C)O)[C@@H](C)O)C(=O)N[C@@H](CO)C(=O)N[C@@H](CCC(=O)O)C(=O)N[C@@H](Cc1ccc(O)cc1)C(=O)N[C@@H](CC(C)C)C(=O)N[C@@H](CC(=O)O)C(=O)N[C@@H](CO)C(=O)N[C@@H](CCC(=O)O)C(=O)N[C@@H](CCCNC(=N)N)C(=O)N[C@@H](C)C(=O)N[C@@H](CCCNC(=N)N)C(=O)N[C@@H](CC(=O)O)C(=O)N[C@@H](Cc1ccccc1)C(=O)N[C@H](C(=O)N[C@@H](C)C(=O)N[C@@H](Cc1c[nH]c2ccccc12)C(=O)N[C@@H](CC(C)C)C(=O)N[C@@H](CCC(=O)O)C(=O)N[C@@H](C)C(=O)NCC(=O)NCC(=O)O)C(C)C)C(=O)O` is recorded as 37.5% (item: Vomiting; humans CrCl at least 90 mL/min; subcutaneous, 100 µg single dose).
